Measured values from different studies.
Numbered parts are unrelated; each lists some results of a single study. Substitutions count along the parent as printed.

Sample 1
Target: CCNF, cyclin fold, Cln2 fusion (human)
Method: yeast growth competition, sequencing
Sample: yeast
Notes: strong parent motif
Baseline: not given
Reading: higher = stronger binding
Starting sequence: RBL1 docking peptide (human); GSAKRRLFGEDPP; partner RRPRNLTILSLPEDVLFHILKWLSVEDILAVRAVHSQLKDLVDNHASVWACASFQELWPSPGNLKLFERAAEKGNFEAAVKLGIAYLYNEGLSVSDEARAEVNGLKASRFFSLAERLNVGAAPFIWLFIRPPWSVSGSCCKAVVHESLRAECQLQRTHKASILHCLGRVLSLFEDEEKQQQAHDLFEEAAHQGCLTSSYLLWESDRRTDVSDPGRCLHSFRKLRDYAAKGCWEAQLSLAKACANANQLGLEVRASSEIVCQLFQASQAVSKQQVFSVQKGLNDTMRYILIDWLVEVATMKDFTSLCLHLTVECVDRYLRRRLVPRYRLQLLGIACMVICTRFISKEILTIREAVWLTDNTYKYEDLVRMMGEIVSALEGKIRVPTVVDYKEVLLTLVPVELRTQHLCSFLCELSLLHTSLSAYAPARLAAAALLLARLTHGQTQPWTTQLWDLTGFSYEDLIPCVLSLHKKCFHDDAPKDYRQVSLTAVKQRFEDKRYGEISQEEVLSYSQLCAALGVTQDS
Change	normalised enrichment score
R5S	0.712
E10I	6.94
R6D	-0.123
F8L	1.16
P13Y	6.61
R5K	3.64
G1C	7.98
P13H	6.67
G1Y	9.39
L7T	0.0952
A3V	8.74
P13Q	7.12

Sample 2
Target: Interferon regulatory factor 5, full length, phosphomimetic (IRF5, Homo sapiens, UniProt Q13568-2, residues 1-514, K96S/S451D/S453D/S456D/S462D)
Method: protein-binding microarray
Molecule type: double-stranded DNA, one strand shown
Sample: in vitro
Concentration: 250 nM
Notes: 60-bp whole probe
With: salmon DNA 0.4 mg/ml
Baseline: random background probes
Reading: higher = stronger binding
Shared flanks, not repeated: GCCTAGCAC … GTCTTGATTCGCTTGACGCTGCTG
Sequence	log fluorescence [z-score]
TTAGGTTTCGGACTGTGTTAGTGCTAG	5.16
TTAGGGTTCGACTATCGGTTAGTGCTA	5.91
TCTCATTCCAATTCTTTTTATGTGCTA	1.79
GACGATTTCAGTATCGAGATGTGCTAG	4.28
TTAGGTTGCCTTTCCCTTTAGTGCTAG	0.261
GACGGTCTCGAACTGGGGACGTGCTAG	-0.352
AGAGAATGTGGAGAAATAGGGTGCTAG	-0.0245
GACGGTATCCTTATCCTGAGGTGCTAG	0.00984

Sample 3
Target: ABI1, truncated, D143A, DHFR fusion (Arabidopsis thaliana)
Method: DHFR PCA, deep sequencing
Sample: yeast
Notes: methotrexate growth selection, single substitutions
With: (+)-ABA 0.11 µM
Baseline: wild-type fitted maximum
Reading: higher = stronger binding
Starting sequence: PYL1, truncated, DHFR fusion (Arabidopsis thaliana); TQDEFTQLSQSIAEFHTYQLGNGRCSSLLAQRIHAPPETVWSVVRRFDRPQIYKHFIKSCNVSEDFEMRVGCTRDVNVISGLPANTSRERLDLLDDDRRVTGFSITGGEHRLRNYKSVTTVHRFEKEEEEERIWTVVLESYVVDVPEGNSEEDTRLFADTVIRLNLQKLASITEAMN; partner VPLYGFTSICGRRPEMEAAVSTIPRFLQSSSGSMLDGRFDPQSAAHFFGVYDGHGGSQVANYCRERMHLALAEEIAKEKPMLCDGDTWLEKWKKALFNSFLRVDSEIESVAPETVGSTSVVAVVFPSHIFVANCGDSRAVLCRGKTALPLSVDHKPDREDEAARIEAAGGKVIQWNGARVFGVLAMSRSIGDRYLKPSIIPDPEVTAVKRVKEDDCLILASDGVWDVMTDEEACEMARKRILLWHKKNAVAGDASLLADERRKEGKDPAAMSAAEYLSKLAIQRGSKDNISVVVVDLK
Change	relative binding score
E125W	12.3%
S9E	47%
D159L	-4.83%
V143N	-2.33%
L156F	2.33%
G71R	-1.05%
Y115S	-2.09%
L169F	-11.9%
L29H	34.5%
S63F	3.6%
N114R	-8.05%
T160D	-7.32%
L138M	2.29%

Single results of other studies
Molecule	target	test	test system	setting	how to read	measurement	result
PhoQ, residues 284 288 289 292 302 303 TLSLKA	PhoP, residues 12 14 15 18 19 FWNTL (Escherichia coli, UniProt P23836)	Sort-seq, refers to: YFP reporter	E. coli	PhoQ-PhoP variant library, with: 10 µM Mg2+	baseline: high Mg2+ state, higher = stronger signaling	fold induction	2.07

A few entries again (sample 3):
Change	relative binding score
G71R	-1.05%
Y115S	-2.09%
L169F	-11.9%
L29H	34.5%
S63F	3.6%
